Published values from different studies.
Organism: Mycobacterium tuberculosis

`Cc1nc2ccc(CN(C)c3ccc(C(=O)N[C@@H](CCC(=O)O)C(=O)O)s3)cc2c(=O)[nH]1` gave an MIC90 of > 100 µM (microbial growth; H37RV).
The MIC90 of `O=C(NCCNCCO)c1cn(Cc2ccccc2)c2c(Cl)c(OCc3ccc(C(F)(F)F)cc3)c(Cl)cc2c1=O` is reported as 0.8 to 4 µM.
`C#CCN(Cc1ccc2[nH]cnc(=O)c2c1)c1ccc(C(=O)N[C@@H](CCC(=O)O)C(=O)O)cc1` has an MIC90 of > 100 µM (microbial growth; H37RV).
With `Cc1cnc(N)c(S(=O)(=O)N(C)CC(=O)Nc2ccc(C#N)c(Cl)c2)c1` the MIC90 was > 100 µM (microbial growth; H37RV; 10 days).
The MIC90 of `CCOC(=O)CC[C@@H](NC(=O)c1ccc(N(C)Cc2ccc3[nH]c(C)nc(=O)c3c2)s1)C(=O)OCC` is reported as 80.3 µM (microbial growth; H37RV).
`Cc1cc(Nc2nc(N3CC[C@@H](c4ccncc4)C3)ncc2F)[nH]n1` has an MIC90 of 0.11 µM (microbial growth; H37RV).
`CC(C)(C)OC(=O)NCCC[C@H](NC(=O)c1ccc(NCc2ccc3nc(N)nc(N)c3c2Cl)cc1)C(=O)O` gave an MIC90 of 0.07 µM (microbial growth; H37RV).
`COc1ccc(NC(=O)CN(C)S(=O)(=O)c2cc(C)cnc2N)cc1Cl` gave an MIC90 of > 100 µM (H37Rv).
With `COc1cc2c(=O)c(C(=O)NCCNCCO)cn(Cc3ccccc3)c2cc1OCc1ccc(C(F)(F)F)cc1` the MIC90 was 5 to 13 µM.
The MIC90 of `Cc1[nH]c(=O)c(CNC(=O)c2ccc(C(F)(F)F)nc2)c2c1CCCC2` is reported as 1.2 µg/mL (microplate Alamar Blue; H37Rv).
`Cc1cnc(N)c(S(=O)(=O)N(C)CC(=O)Nc2ccn(C)c(=O)c2)c1` has an MIC90 of > 100 µM (microbial growth; H37RV; 10 days).
`CN[C@@H]1[C@H](O)[C@H](NC)[C@H]2O[C@]3(O)[C@H](O[C@@H]2[C@H]1O)O[C@H](C)C[C@H]3NC(=O)Cc1ccc(F)cn1` gave an MIC90 of 3.8 µg/mL (MDR and XDR isolates).
`COc1cc(NC(=O)CN(C)S(=O)(=O)c2cc(C)cnc2N)ccn1` gave an MIC90 of > 100 µM (microbial growth; H37RV; 10 days).
`CN1C/C(=C\c2ccccc2)C2=NN(C(N)=S)[C@H](c3ccccc3)[C@@H]2C1` has an MIC90 of 160 µg/mL (microbial growth; H37RV).
For `CCn1cc(C(=O)NCCNCCO)c(=O)c2cc(OCc3cccc(C)c3)c(Cl)cc21`, the MIC90 was 8 to 125 µM.
`COC(=O)[C@@H](CCCNC(=O)OC(C)(C)C)NC(=O)c1ccc(NCc2ccc3nc(N)nc(N)c3c2Cl)cc1` gave an MIC90 of < 0.1 µM (microbial growth; H37RV).
With `CCc1nc2ccc(Cl)cn2c1C(=O)NC/C=C(\C)CC/C=C(\C)CCC=C(C)C` the MIC90 was > 10 µM (microbial growth; H37RV).
With `Cc1cc(S(=O)(=O)N(C)CC(=O)Nc2ccn(C)c(=O)c2)c2[nH]ncc2c1` the MIC90 was 3.1 µM (microbial growth; H37RV; 10 days).
For `O=C(NCCNCCO)c1cn(Cc2ccc(F)cc2)c2cc(Cl)c(OCc3ccc(C(F)(F)F)cc3)cc2c1=O`, the MIC90 was 3 to 6 µM.
`CN[C@@H]1[C@H](O)[C@H](NC)[C@H]2O[C@]3(O)[C@H](O[C@@H]2[C@H]1O)O[C@H](C)C[C@H]3NC(=O)Cc1ccccn1` gave an MIC90 of 3.8 µg/mL (MDR and XDR isolates).
`C#CCN(Cc1ccc2nc(N)nc(N)c2c1)c1ccc(C(=O)N[C@@H](CCC(=O)OCC)C(=O)OCC)cc1` gave an MIC90 of < 0.2 µM (pptT knockdown without ATc).
The MIC90 of `Cc1cnc(N)c(S(=O)(=O)N(C)CC(=O)Nc2ccc(N3CCN(C)CC3)c(Cl)c2)c1` is reported as > 100 µM (microbial growth; H37RV; 10 days).
`O=c1c2ccccc2[nH]c(=S)n1Cc1cccnc1` gave an MIC90 of 3 µM (pptT knockdown without ATc).
The MIC90 of `O=C(NCCNCCO)c1cn(Cc2ccccc2)c2cc(OCc3ccc(C(F)(F)F)cc3)c(Cl)cc2c1=O` is reported as 0.4 µM.

Excerpt of the above:
`C#CCN(Cc1ccc2[nH]cnc(=O)c2c1)c1ccc(C(=O)N[C@@H](CCC(=O)O)C(=O)O)cc1` has an MIC90 of > 100 µM (microbial growth; H37RV).
With `Cc1cnc(N)c(S(=O)(=O)N(C)CC(=O)Nc2ccc(C#N)c(Cl)c2)c1` the MIC90 was > 100 µM (microbial growth; H37RV; 10 days).
